Assay results from different studies.
Parts stem from different laboratories: compare values within a part only.
UniProt P14416, sequence (whole entry, looked up): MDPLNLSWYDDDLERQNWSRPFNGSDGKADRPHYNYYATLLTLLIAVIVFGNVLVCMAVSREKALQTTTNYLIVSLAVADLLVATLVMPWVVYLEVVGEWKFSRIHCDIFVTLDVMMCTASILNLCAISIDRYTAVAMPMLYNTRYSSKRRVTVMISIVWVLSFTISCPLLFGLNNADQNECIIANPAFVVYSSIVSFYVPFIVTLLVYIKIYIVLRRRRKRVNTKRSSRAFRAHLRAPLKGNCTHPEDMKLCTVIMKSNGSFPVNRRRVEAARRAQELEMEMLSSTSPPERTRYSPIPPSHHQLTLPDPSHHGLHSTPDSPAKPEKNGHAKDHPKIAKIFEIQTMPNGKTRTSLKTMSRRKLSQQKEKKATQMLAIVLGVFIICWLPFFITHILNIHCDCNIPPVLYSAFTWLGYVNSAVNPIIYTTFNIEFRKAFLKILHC
UniProt P28482, sequence (whole entry, looked up): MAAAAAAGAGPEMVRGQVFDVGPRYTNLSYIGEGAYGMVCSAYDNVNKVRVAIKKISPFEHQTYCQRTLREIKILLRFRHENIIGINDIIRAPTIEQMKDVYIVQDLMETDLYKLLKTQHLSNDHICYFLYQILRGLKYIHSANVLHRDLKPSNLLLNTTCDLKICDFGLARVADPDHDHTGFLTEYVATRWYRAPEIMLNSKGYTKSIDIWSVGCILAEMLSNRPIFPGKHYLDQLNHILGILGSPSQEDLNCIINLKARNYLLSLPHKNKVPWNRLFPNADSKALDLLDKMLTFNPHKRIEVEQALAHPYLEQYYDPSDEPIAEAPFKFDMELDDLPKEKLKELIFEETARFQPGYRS

Series 1
Organism: Sarcocystis neurona
Effect on: parasite growth
Concentration: 10 µM
Time: 96 h
Setting: second screen
Baseline: untreated
For `c1ccc2c(CC3=NCCN3)cccc2c1`, “log2 fold change” read 0.0154.
Under “log2 fold change”, `CN(C/C=C/C#CC(C)(C)C)Cc1cccc2ccccc12` is recorded as 0.65.
`CC(C)c1ccc2oc3nc(N)c(C(=O)O)cc3c(=O)c2c1`: “log2 fold change” 3.27.
Under “log2 fold change”, `CN(C)CCC=C1c2ccccc2COc2ccccc21` is recorded as 0.28.
Under “log2 fold change”, `Nc1ccn([C@H]2CC[C@@H](CO)O2)c(=O)n1` is recorded as 0.33.
`COC(=O)C1=C(C)NC(C)=C(C(=O)OC)C1c1ccccc1[N+](=O)[O-]`: “log2 fold change” 0.27.
For `C[C@H]1O[C@@H](O[C@H]2[C@@H](O)C[C@H](O[C@H]3[C@@H](O)C[C@H](O[C@H]4CC[C@@]5(C)[C@H](CC[C@@H]6[C@@H]5C[C@@H](O)[C@]5(C)[C@@H](C7=CC(=O)OC7)CC[C@]65O)C4)O[C@@H]3C)O[C@@H]2C)C[C@H](O)[C@@H]1O`, “log2 fold change” read -0.63.
`O=C(O)COCCN1CCN([C@H](c2ccccc2)c2ccc(Cl)cc2)CC1`: “log2 fold change” 0.55.
Under “log2 fold change”, `CN(C)c1nc(N(C)C)nc(N(C)C)n1` is recorded as 0.19.
`N[C@@H](C(=O)N[C@@H]1C(=O)N2C(C(=O)O)=C(CSc3c[nH]nn3)CS[C@H]12)c1ccc(O)cc1` — result for “log2 fold change”: 0.33.
For `[H]/N=C(/NC)NCCC[C@H](N)C(=O)O`, “log2 fold change” read 0.34.
`CCCC(=O)Nc1ccc(OCC(O)CNC(C)C)c(C(C)=O)c1` (stereo not drawn): “log2 fold change” 0.57.

Series 2
Target: Ephrin type-B receptor 3 (EPHB3, Homo sapiens, UniProt P54753)
Effect on: enzyme activity
Action: inhibitor
Concentration: 0.5 µM
Baseline: control
Construct (P54753 1-998): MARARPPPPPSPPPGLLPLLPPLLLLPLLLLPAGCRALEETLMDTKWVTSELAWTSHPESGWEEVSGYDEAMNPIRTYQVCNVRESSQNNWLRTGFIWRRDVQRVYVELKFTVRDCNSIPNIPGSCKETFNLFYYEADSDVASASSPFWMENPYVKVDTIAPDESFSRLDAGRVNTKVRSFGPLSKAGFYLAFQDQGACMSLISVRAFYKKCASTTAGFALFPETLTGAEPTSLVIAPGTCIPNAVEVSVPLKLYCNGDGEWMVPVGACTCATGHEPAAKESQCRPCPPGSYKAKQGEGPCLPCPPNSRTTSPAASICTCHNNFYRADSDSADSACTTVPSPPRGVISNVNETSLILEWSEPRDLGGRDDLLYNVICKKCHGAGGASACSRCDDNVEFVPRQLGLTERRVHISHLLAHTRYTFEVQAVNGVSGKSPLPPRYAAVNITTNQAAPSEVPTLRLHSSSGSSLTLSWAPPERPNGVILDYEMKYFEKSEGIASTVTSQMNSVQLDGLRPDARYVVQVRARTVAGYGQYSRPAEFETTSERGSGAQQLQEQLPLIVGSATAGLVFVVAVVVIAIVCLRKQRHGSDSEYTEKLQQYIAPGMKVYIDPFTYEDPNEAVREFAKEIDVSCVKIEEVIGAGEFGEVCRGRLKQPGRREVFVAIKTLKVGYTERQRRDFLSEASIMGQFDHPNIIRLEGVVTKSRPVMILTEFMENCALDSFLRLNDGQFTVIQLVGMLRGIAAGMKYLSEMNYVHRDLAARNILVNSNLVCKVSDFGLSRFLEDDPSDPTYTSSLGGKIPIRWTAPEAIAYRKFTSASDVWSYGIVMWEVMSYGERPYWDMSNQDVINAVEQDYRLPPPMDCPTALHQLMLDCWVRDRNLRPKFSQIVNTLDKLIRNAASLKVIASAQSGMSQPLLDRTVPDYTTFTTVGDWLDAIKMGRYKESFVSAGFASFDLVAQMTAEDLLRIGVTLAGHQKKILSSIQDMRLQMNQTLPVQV
`COc1ccc(COc2ccc(Cc3cnc(N)nc3N)cc2OC)cc1` has a remaining activity of 91.8%.
`COc1cccc(-c2cc(=O)c3ccccc3o2)c1N` gave a remaining activity of 91.9%.
`COc1ccc2c(c1)c(C1=C(c3c[nH]c4ccccc34)C(=O)NC1=O)cn2CCCN(C)C` gave a remaining activity of 97%.
For `O=Nc1c(-c2c(O)[nH]c3cc(Br)ccc23)[nH]c2ccccc12`, the remaining activity was 103%.
`O=C(c1cc2cc(O)ccc2[nH]1)c1cc2cc(O)ccc2[nH]1` has a remaining activity of 92.3%.
`Cc1cc(Nc2cc(N3CCN(C)CC3)nc(Sc3ccc(NC(=O)C4CC4)cc3)n2)[nH]n1` gave a remaining activity of 62.2%.
`CN(C)S(=O)(=O)c1ccc2c(c1)/C(=C/c1cc3c([nH]1)CCCC3)C(=O)N2` has a remaining activity of 105%.
For `O=C1NC(=O)c2c1c1c3ccccc3[nH]c1n1cncc21`, the remaining activity was 79.7%.
The remaining activity of `N#Cc1cnc2cnc(NCc3cccnc3)cc2c1Nc1ccc(F)c(Cl)c1` is reported as 98.5%.

Series 3
Species: human
Medium: microsomes or S9
Concentration: 2 µM
Time: 0.5 h
`O=C1C(c2cnc3ccccc3c2)=C(c2cc(F)cc(F)c2)c2ccc(OCCN3CCS(=O)(=O)CC3)cc21` has a remaining compound of 44.3%.
The remaining compound of `CCCc1cc(N2CCN(C(=O)c3ccc(C#N)cc3F)CC2)nc2nnc(CC)n12` is reported as 94.5%.
For `COc1ccccc1OCC(=O)N(Cc1ccc(-c2ccc(F)cc2)o1)C1CCS(=O)(=O)C1` (stereo not drawn), the remaining compound was 2.62%.
`Cn1c(=O)oc2cc(S(=O)(=O)N3CCC4(CC3)Nc3ccccc3-n3cccc34)ccc21` has a remaining compound of > 99.9%.
The remaining compound of `CN(C)CCOc1cc(N2C(=O)c3ccccc3S2(=O)=O)ccc1Cl` is reported as > 99%.
The remaining compound of `CN1CCCc2c(c3cc(F)ccc3n2-c2ccc(F)cc2)C1` is reported as 91%.
With `Cc1n[nH]c(-n2ccc3nc4ccn(CCc5ccccc5)c(=O)c4cc3c2=O)n1` the remaining compound was 82.6%.
With `Cc1ccc(-n2nncc2-c2ccc(O)cc2O)cc1` the remaining compound was > 100%.
`Cn1c(Cn2cc(-c3nnco3)ccc2=O)nc2cc(Cl)ccc21` has a remaining compound of 97.9%.
For `CN(Cc1ccccc1)Cc1cc(=O)n2nc(-c3ccc(C(C)(C)C)cc3)nc2[nH]1`, the remaining compound was 41.3%.
`Cc1ncc(-c2onc(C)c2C)c(-c2ccco2)n1` gave a remaining compound of 53.3%.
`Cc1ccc2nc(Nc3nc(C)cc(C(F)(F)F)n3)nc(C)c2c1` gave a remaining compound of 9.94%.
The remaining compound of `c1ccc(-c2cc(-c3cc4ccccc4o3)nc3nnnn23)cc1` is reported as 64.9%.

Other studies, line by line
For `CC(C)(C)OC(=O)N1CCCC1CNC1CCC(c2cc(F)ccc2F)(S(=O)(=O)c2ccc(Cl)cc2)CC1` (stereo not drawn), the inhibition was 83% (DRD2 (Homo sapiens, UniProt P14416); cell-free assay; 10 µM).
The EC50 of `C[C@@H](NC(=O)Nc1cc2[nH]ncc2c(CO)n1)c1ccccc1` is reported as 95 nM (MAPK1 (Homo sapiens, UniProt P28482); target engagement in cells, BRET).

Excerpt of the above (series 1):
For `[H]/N=C(/NC)NCCC[C@H](N)C(=O)O`, “log2 fold change” read 0.34.
`CCCC(=O)Nc1ccc(OCC(O)CNC(C)C)c(C(C)=O)c1` (stereo not drawn): “log2 fold change” 0.57.
Under “log2 fold change”, `CN(C)CCC=C1c2ccccc2COc2ccccc21` is recorded as 0.28.
Under “log2 fold change”, `CN(C)c1nc(N(C)C)nc(N(C)C)n1` is recorded as 0.19.
`N[C@@H](C(=O)N[C@@H]1C(=O)N2C(C(=O)O)=C(CSc3c[nH]nn3)CS[C@H]12)c1ccc(O)cc1` — result for “log2 fold change”: 0.33.
